Published values from different studies.
A part holds a random share of what one study measured.

Block 1 — method: RNA Bind-n-Seq; molecule type: RNA; matrix: in vitro; concentration: 365 nM; reference: no-protein control; reading: higher = stronger binding; endpoint: RBNS enrichment (R)
Target: RNA binding protein fox-1 homolog 2, RRM domain, GST-SBP tag (RBFOX2, Homo sapiens, UniProt O43251-10, residues 100-194)
Notes: natural RNA segment, single round, ends assumed
Constant ends, left off below: GGGAGUUCUACAGUCCGACGAUC … UGGAAUUCUCGGGUGCCAA
Residues (chain): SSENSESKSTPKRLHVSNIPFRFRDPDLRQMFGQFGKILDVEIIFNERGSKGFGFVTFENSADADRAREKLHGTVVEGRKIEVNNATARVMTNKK
GUCUUUGUGUGGCAAAGAUGUUCCCUUGUAGGCCCCUUUCAGGUAACCGUCUUCACAAUGUAUUUUCAUCACAGUUUAAGGAGCAUCAGCCGCUUCUCAAGUGGGUAGGG: 0.332
UGCAGUCCCAAAAUUAGGGGUCCUUCAGUCUUGGAGACUAUAAGGGAGCCUCUGCACCCAGGGAAAAUGUUACCCUUUACAGGGGGGAAGGGUAAACCAGUAGGGAAUAC: 0.562
GUGGGGGAUGGAGGGCCCCCACCCCUGCUUCACAGAAUAAUGGGAAGUGACUCUAGUCUUUGUAAGCAAUUUUCAUUCUCAUUAGGAAGUUAAAUGUAGAUUCACAGAUA: 0.622
GGGACUGUGUAGCCUCUGCCUCCCAGGAUGUUGUCUUUCAUGUGGGAAUUUUGACAGGAUUUCUAGCAAGACAGAUUUCUUCUCGAAAGCUUUUCUUCCUCAGGAGUAUG: 1.38
UGUGAUGACUGUGGAAAGGCCUUCUCGCAGAGCUCCGACCUCAUCCGCCACCAGCGGACCCACGCAGCCGGCCGCCGUUAACCAGUCACGGGUGGGGAGGUGGUGUGCAG: 0.24
ACCUUGCUGGGGUGGGGUGCCACCUCCAGUGGCCAGCUCCAGAUCCAAGGAGCAGCCCCCUGGGGAUGGACCCCAUUCAUUCAUCAUGACUCCCAACAGUUUUCAUUGUG: 0.185
UCAGGAAACACAGACCUUAGCGAUUCUCCAUAAAAUGGCAGCCCAAUGAAAAUAAACUUGACAACUAAUUUUCAUGAAGGCUUGUGUCUUCUUUUAAAGUUAUACUUGUU: 0.241
UUUUCCCAGUAUUUCCUGAAUUUGCCCGUGCAGGUGUGUGACCCUCCCUGAGCAUCUGGAGACACCUGGAGCAUGAAACCUUCUGUAAUCGCUGAGAUCUGUAACUUACA: 26.5
UCAUUUUUCAUUCUCCUCCCUCAAGGUAAUUUCUGGACAGAAACUCACACGACUAUUUACAUCAAAUCAGAUAUUAACAAGUGAAUGCUUGAGUUGCCUUGUAGAGCUAC: 0.583
GGAGGCUGGAACCAUUUCUGGGCAUUGUGGUCAUUCCCACUGUGUUCCUCCACCUCCUCCCUCCAGCGUUGCUCAGACCUCUGUCUUGGGAGAAAGGUUGAGAUAAGAAU: 0.489
CCUUAGUCUCCAAGGUCAUCACCCCACCCACUCCCAUCAGUGUGGGCCUUGCUGCCAUUCCAGUCACGCACUCCUUGUCCCUGUCUCGCAUGGAGAUCAAAGAAAUAGCA: 5.23
GUUGUAAACCUCUUUAUUUUGGUGACUGUGACCACUUCUUUGUAGCCACCAAUUGUAGUGACCAGUUGCCUAAUGGUCACUUUCUGACUCCAGCCUUGCCAGCCUGACUC: 0.719

Block 2 — method: universal PBM; molecule type: double-stranded DNA, one strand shown; matrix: in vitro; concentration: 600 nM; reading: higher = stronger binding; endpoint: E-score
Target: Sal-like protein 4, full length isoform A (SALL4, Homo sapiens, UniProt Q9UJQ4, residues 1-1053)
Sequence of UniProt Q9UJQ4 (whole entry, looked up): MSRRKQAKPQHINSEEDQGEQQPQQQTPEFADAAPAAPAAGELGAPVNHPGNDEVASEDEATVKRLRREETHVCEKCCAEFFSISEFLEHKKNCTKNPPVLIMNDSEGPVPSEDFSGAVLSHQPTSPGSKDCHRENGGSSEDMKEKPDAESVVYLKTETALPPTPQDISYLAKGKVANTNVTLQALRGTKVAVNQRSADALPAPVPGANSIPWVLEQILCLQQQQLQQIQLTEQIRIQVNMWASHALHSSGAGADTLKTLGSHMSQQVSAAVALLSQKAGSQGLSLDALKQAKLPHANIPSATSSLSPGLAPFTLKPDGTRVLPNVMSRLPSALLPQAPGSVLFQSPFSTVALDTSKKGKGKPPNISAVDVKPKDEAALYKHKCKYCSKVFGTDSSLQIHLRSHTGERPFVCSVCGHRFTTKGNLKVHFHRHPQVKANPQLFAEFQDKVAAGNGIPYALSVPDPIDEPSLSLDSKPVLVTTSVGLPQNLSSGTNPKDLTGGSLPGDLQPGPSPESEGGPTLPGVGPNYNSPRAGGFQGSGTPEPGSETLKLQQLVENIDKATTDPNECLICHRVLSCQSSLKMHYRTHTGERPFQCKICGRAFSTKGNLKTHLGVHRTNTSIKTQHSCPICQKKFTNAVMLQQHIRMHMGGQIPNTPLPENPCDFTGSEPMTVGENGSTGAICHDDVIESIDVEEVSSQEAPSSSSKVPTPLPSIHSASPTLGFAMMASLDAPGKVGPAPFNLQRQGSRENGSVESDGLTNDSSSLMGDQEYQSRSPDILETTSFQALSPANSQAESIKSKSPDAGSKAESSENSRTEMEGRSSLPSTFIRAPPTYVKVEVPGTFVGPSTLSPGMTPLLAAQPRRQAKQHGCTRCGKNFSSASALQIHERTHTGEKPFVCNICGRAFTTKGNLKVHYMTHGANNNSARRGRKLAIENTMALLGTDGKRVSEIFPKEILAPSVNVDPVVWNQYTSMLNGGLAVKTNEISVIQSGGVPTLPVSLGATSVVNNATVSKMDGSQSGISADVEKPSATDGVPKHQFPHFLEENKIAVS
Notes: 8-mer, flanks averaged, mean of replicates
GCCTGATA: -0.0325
AGGCAGAT: -0.000945
GGCTTCCA: -0.198
TGCTTACA: 0.0141
ATCGACGA: -0.0497
GAACGAAA: 0.0603
GACGCCCC: -0.396
GCAACACC: -0.161
GCACGACC: -0.27
GCGTGGAC: -0.294
CATGCTAG: 0.00738
CATTGAGA: 0.145
GACGAGGA: -0.0688
ACCAGGAC: -0.128
AGTTCGGG: -0.076
ACGATAAC: 0.102
TACCCTGA: -0.093
GATTAACA: 0.215
ACTGAAAG: 0.0396
GTTTAAAC: 0.186
ACGCCACT: -0.208
AATCTTCA: 0.27
GGGTGAAA: 0.0301
CCATCTAC: -0.107
GAATCGTC: -0.115

Block 3 — method: protein binding microarray; molecule type: double-stranded DNA, one strand shown; matrix: in vitro; concentration: not given; reference: not given; reading: higher = stronger binding; endpoint: E-score
Target: Histone acetyltransferase KAT6A, winged helix 2, GST fusion (KAT6A, Homo sapiens, UniProt Q92794, residues 85-181)
Notes: 8-mer, flanks averaged, mean of 2 arrays, mostly near background
Construct (chain): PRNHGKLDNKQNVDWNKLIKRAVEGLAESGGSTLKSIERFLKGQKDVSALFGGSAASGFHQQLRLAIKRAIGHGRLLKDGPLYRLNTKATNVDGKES
AAGACAAT: -0.0475
AAAGCAGA: 0.0515
CCCCTGTA: -0.081
CACAATAC: -0.171
TCAAGCGA: -0.0526
ACAACGCT: -0.0823
AGTTGCCC: 0.138
ACACGGCC: 0.0285
CGCAGGCG: 0.156
CGCGACGC: 0.164
AGGCCAGA: 0.116
ATACATGC: -0.253
CGTAAAAG: -0.113
CGCGTTAG: 0.162
ACTGGGGC: 0.095
CAGGTGAA: 0.0598
CCCCACAC: 0.0204
TCCGTAAA: 0.0492

Block 4 — method: RNA Bind-n-Seq; molecule type: RNA; matrix: in vitro; concentration: 200 nM; notes: whole 134-nt RNA, ends assumed; with: 150 mM KCl; reference: input library; reading: higher = stronger binding; endpoint: log2 enrichment
Target: Fragile X messenger ribonucleoprotein 1, C-terminal low-complexity region (Fmr1, Mus musculus, UniProt P35922)
Constant ends, left off below: GGGAGUUCUACAGUCCGACGAUC … UGGAAUUCUCGGGUGUCAAGG
AAGUCCUGUGCUACACAUCGUAUGUACCGAAUCGGAAAAAGGAAAGGAAAAAAAGGAAAGUAUUAUGUUACGCCGUUCGGAUCUGCACUU: -0.82
UUCCUCAAGUCCUGUGCUACACAUCGUAUGUACCGAAUCGGCGGCGGGCGGAAAGUAUUAUGUUACGCCGUUCGGAUCUGCACUUCCAGC: -0.0961
UCCUGUGCUACACAUCGUAUGUACCGAAUCGGGGAAAAAAAGGGGAGGGGUUUUUGGGGAAAGUAUUAUGUUACGCCGUUCGGAUCUGCA: 0.543
UUCCUCAAGUCCUGUGCUACACAUCGUAUGUACCGAAUCGGCGGGCGGCGGAAAGUAUUAUGUUACGCCGUUCGGAUCUGCACUUCCAGC: 0.0223
ACCAUAAAGGUGGGCAUCUUUGGGAAGUGGGGCAAGGGGGGGAUAGGGAGGGGGGUAACACUUUGGGAACAGGUGGUCCCAGGUCGUUUC: 0.837
UGGGAUGUGGAUUUUGUUUAUUUUUUUAGCUCAUUUCCAGGGGUGGGAAUUUUUUUUUAAUAUGUGUCAUGAAUAAAGUUGUUUUUGAAA: -0.525
CAAGUCCUGUGCUACACAUCGUAUGUACCGAAUCGGGGAAAGGGGAAAGGAAAGGAAAGUAUUAUGUUACGCCGUUCGGAUCUGCACUUC: -0.25
AAGUCCUGUGCUACACAUCGUAUGUACCGAAUCGGGGAAAAGGGGAAAAGGAAAAGGAAAGUAUUAUGUUACGCCGUUCGGAUCUGCACU: -0.127
UAACUUUAGAGGAGGAUCUGAUGGAUAUGGCAGUGGAUGUGGAUUUGGGGAUGGCUAUAAUGGGUAUGGAGGAGGACCUGGAGGUGGCAA: 0.258
UCCUGUGCUACACAUCGUAUGUACCGAAUCGGGUUUUUUUGGGAAAGGGAAAAAAAGGGAAAGUAUUAUGUUACGCCGUUCGGAUCUGCA: -0.137

For quick reference, copied from above (block 2):
CATTGAGA: 0.145
GACGAGGA: -0.0688
ACCAGGAC: -0.128
AGTTCGGG: -0.076
ACGATAAC: 0.102
TACCCTGA: -0.093
GATTAACA: 0.215
ACTGAAAG: 0.0396
GTTTAAAC: 0.186
